Experimental data pooled from the literature.
A part holds a random share of what one study measured.

Series 1 — method: RNA Bind-n-Seq; molecule type: RNA; medium: in vitro; tested at: 200 nM; notes: whole 134-nt RNA, ends assumed; together with: 150 mM KCl; reference: input library; direction: higher = stronger binding
Target: Ras GTPase-activating protein-binding protein 1, full length (G3BP1, Homo sapiens, UniProt Q13283)
Chain of UniProt Q13283 (whole entry, looked up): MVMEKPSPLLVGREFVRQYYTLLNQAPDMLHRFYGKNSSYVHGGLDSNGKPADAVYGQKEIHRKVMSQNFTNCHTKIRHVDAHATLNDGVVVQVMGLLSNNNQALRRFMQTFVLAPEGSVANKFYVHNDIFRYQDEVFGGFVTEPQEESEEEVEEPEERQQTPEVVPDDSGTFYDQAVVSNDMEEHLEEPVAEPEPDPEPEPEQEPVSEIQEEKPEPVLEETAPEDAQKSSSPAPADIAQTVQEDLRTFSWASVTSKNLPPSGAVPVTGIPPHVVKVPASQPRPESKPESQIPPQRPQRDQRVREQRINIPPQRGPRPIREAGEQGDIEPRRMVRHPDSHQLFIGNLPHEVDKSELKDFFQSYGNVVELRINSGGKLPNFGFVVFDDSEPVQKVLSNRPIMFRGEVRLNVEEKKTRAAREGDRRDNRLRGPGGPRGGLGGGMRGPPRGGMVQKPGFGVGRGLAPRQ
All sequences stand within: GGGAGUUCUACAGUCCGACGAUC … UGGAAUUCUCGGGUGUCAAGG
With `UUUUAUGUGGAGUUAUGAAGACCUACAGGCAGAGAGAGAAACAGGGGAGCAAGGUGCAAGAGUCCACAAAGGGACCUGAUGAAGCGAAGA` the log2 enrichment was 0.052.
`UCAAGUCCUGUGCUACACAUCGUAUGUACCGAAUCGGUUUGGUUUUUUUGGAGGAAAGUAUUAUGUUACGCCGUUCGGAUCUGCACUUCC` gave a log2 enrichment of -0.487.
With `UCCUGUGCUACACAUCGUAUGUACCGAAUCGGGGUUUUUGGGGUGGGGUUUUUUUGGGGAAAGUAUUAUGUUACGCCGUUCGGAUCUGCA` the log2 enrichment was 0.632.
`CAAGUCCUGUGCUACACAUCGUAUGUACCGAAUCGGAAAAAAAGGAAAAAGGAGGAAAGUAUUAUGUUACGCCGUUCGGAUCUGCACUUC` gave a log2 enrichment of -0.935.
The log2 enrichment of `GCAGGAAGUAAAAACAAAUGGAAAUGCUUCGGAAAAUGGCAGGGGUGGGGGUUGCUAAGGAAAGGGUGGGAUGGGAGUGGGUAAAGAGUU` is reported as 0.972.

Series 2 — method: protein binding microarray; molecule type: double-stranded DNA, one strand shown; medium: in vitro; tested at: not given; reference: not given; direction: higher = stronger binding
Target: Histone acetyltransferase KAT6A, winged helix 2, GST fusion (KAT6A, Homo sapiens, UniProt Q92794, residues 85-181)
Notes: 8-mer, flanks averaged, mean of 2 arrays, mostly near background
Target sequence (chain): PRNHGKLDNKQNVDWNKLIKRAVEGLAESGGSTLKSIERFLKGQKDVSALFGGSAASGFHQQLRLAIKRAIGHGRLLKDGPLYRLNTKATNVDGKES
With `ATCTGTCG` the E-score was 0.0923.
`GGGTACCC` has an E-score of 0.0965.
For `ATACCTTA`, the E-score was -0.0847.
For `CATTCGTA`, the E-score was -0.179.
`AGCTTTAT` has an E-score of 0.0146.
`CTGAAAAA` has an E-score of 0.122.

Series 3 — method: RNA Bind-n-Seq; molecule type: RNA; medium: in vitro; tested at: not given; reference: input RNA pool; direction: higher = stronger binding
Target: RING finger protein unkempt homolog, zinc fingers 1-6, GST-SBP tag (UNK, Homo sapiens, UniProt Q9C0B0, residues 30-357)
Notes: RNA with constant flanks, human-mouse chimeric sites, ends assumed
Target sequence (chain): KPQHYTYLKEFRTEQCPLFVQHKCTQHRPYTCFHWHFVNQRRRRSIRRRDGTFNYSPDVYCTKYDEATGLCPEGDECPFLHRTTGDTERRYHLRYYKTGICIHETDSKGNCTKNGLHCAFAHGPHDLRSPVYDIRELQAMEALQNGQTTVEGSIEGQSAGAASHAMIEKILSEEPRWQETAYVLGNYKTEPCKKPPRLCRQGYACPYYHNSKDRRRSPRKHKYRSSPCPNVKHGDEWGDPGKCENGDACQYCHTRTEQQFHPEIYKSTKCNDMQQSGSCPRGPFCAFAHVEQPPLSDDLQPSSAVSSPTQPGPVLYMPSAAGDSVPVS
The bound/input enrichment of `GGGAGUUCUACAGUCCGACGAUCCCCACGCCCUCCCUCUCACAGGCCCAAGAUAUAACCCACCAGUGCCUUUUGUCUUCCUGUCAGCUCUGUCAAUCACGCCUGUCCUCUCACGCCCACACCAAGUGCCCAAAGUGGGGAGGGCAACAGAGGAUUGAGCAUCA` is reported as 0.532 ratio.
For `GGGAGUUCUACAGUCCGACGAUCGUGCCCUUCUCGCUGCUGCGGAGCCCGAGCUGGGAACCAUUCCGGGACUGGUACCCUCCGCAUAGCCGCCUCUUCGAUCAAGCUUUCGGGCUGCCCCGGUUGCCCGAUGAGUGGUCGCAGCAACAGAGGAUUGAGCAUCA`, the bound/input enrichment was 0.036 ratio.
For `GGGAGUUCUACAGUCCGACGAUCGGCCUGGGACCGUCCUGGGCUAGUACAAAUAGCGGCAGUGGAGGCUCGAGAGGAAAGUUUGUUAGUGGAGGCAGUGGAGAGGUCGUCCAUGUACGGUCUUUACACGAAUAGAUGUGUUCUCAACAGAGGAUUGAGCAUCA`, the bound/input enrichment was 0.63 ratio.
With `GGGAGUUCUACAGUCCGACGAUCCCCUCCCCGGGCCACCCACCCCUCCCGCUCCCAGCGGGAGAUCCAGGUUUCUUCUUAUUUCAUAGCAAGCCAGAACAAUGUUCUACGCACAUUUUGUCCUCAGUAAACGAGGGCCUCUGGCAACAGAGGAUUGAGCAUCA` the bound/input enrichment was 1.06 ratio.

Mixed results
The fold induction of `PhoQ, residues 284 288 289 292 302 303 TYGVAM` is reported as 20.4 (PhoP, residues 12 14 15 18 19 NFCKL (Escherichia coli, UniProt P23836); Sort-seq, measured: YFP reporter; E. coli; PhoQ-PhoP variant library, together with: 10 µM Mg2+; reference: high Mg2+ state, higher = stronger signaling).

A few entries again (series 1):
With `UCCUGUGCUACACAUCGUAUGUACCGAAUCGGGGUUUUUGGGGUGGGGUUUUUUUGGGGAAAGUAUUAUGUUACGCCGUUCGGAUCUGCA` the log2 enrichment was 0.632.
